Published values from different studies.
Lines come from different studies, so protocols differ. Values joined by “and” are separate records of one study, mostly repeats; a detail may differ. ± marks the error that the study gave.
LGALS3: Galectin-3 (LGALS3, Homo sapiens, UniProt P17931)
GLP1R: Glucagon-like peptide 1 receptor (GLP1R, Homo sapiens, UniProt P43220)

| SMILES | target | assay | system | conditions | scale | endpoint | value |
| --- | --- | --- | --- | --- | --- | --- | --- |
| CC(Oc1cc(-c2ccccc2)nc2ccncc12)C(=O)N(C)c1ccccc1 (stereo not shown) | Translocator protein (Tspo, Rattus norvegicus, UniProt P16257) | binding | rat brain homogenate | pKi minus clogD | – | lipophilic efficiency | 5 ± 0.1 |
| COc1c(F)c(F)c(C(=O)N[C@H]2[C@@H](O)[C@@H](CO)O[C@@H](S[C@@H]3O[C@H](CO)[C@H](O)[C@H](NC(=O)c4c(F)c(F)c(OC)c(F)c4F)[C@H]3OS(=O)(=O)O)[C@@H]2O)c(F)c1F | LGALS3 | ITC | – | Kd fixed from FP | – | ΔH | -11 ± 0.239 kcal/mol |
| CCC(=O)N(C)c1ccc(Cl)c(Cl)c1 | Aryl hydrocarbon receptor (AHR, Homo sapiens, UniProt P35869) | reporter gene, agonist | – | 1.0 µM | relative to: vehicle | fold activation | 1.41 fold |
| CNc1ccccc1C(=O)O[C@H]1C[C@H](n2cnc3c(N)ncnc32)O[C@@H]1COP(=O)(O)OP(=O)(O)O | Unconventional myosin-Va (Gallus gallus, UniProt Q02440, D297C/G292C/I296C/S293C/V295G) | van't Hoff analysis | – | concentration not given, with: EDTA | – | ∆H of ligand binding | -1.9 ± 2.2 kcal/mol |
| O=C(Cn1ccnc1)N[C@H]1C[C@@H]1c1ccc(OCc2ccccc2)cc1 | Aromatase (CYP19A1, Homo sapiens, UniProt P11511) | inhibitor, MFC to HFC fluorescence | – | – | relative to: endoxifen over compound | IC50 ratio | 40 fold |
| C[C@@H]1O[C@@H](O[C@@H]2[C@H](O)[C@H](O[C@@H]3[C@@H](O)[C@@H](O)C(O)O[C@H]3C)O[C@H](CO)[C@H]2O)[C@H](O)[C@H](O)[C@H]1O (stereo partly shown) | CD209 antigen (CD209, Homo sapiens, UniProt Q9NNX6) | binding to extracellular domain, STD NMR | – | concentration not given, protein:ligand ratio 1:30 | – | binding | no binding |
| CC(C)(Cn1cc(-c2cnc3cccnn23)nn1)c1c[nH]c2ccccc12 | GLP1R | positive allosteric modulator, item: cAMP | – | with: GLP-1(9-36) V16A | relative to: wild-type GLP-1(9-36) | potentiation | decreased |
| COc1cc2c(cc1OC)C(c1ccc(F)cc1F)N(CCCOc1ccc(CCC(=O)O)cc1)CC2 (stereo not shown) | Peroxisome proliferator-activated receptor delta (PPARD, Homo sapiens, UniProt Q03181) | agonist, Gal4-LBD luciferase reporter | – | 1 nM to 10 µM | relative to: GW501516 | transactivation | no effect |
| O=C(CCCCCCS)Nc1ccccc1 | Histone deacetylase 8 (HDAC8, Homo sapiens, UniProt Q9BY41) | ITC in four buffers | – | concentration not given, pH 7.5 | – | protons released on binding | 0.39 ± 0.02 protons per ligand |
| CC(=O)N[C@H]1[C@@H](O[C@H](C)[C@H](NC(=O)[C@@H](NC(=O)CNC(=O)[C@@H](N)Cc2c[nH]cn2)C(C)C)C(=O)N[C@@H](CO)C(=O)N[C@@H](C)C(=O)N2CCC[C@H]2C(=O)N[C@@H](CC(=O)O)C(=O)N[C@H](C(=O)N[C@@H](CCCNC(=N)N)C(=O)N2CCC[C@H]2C(=O)N[C@@H](C)C(=O)N2CCC[C@H]2C(=O)NCC(=O)N[C@@H](CO)C(N)=O)[C@@H](C)O)O[C@H](CO)[C@H](O)[C@@H]1O[C@@H]1O[C@H](CO)[C@H](O)[C@H](O)[C@H]1O | LGALS3 | binding, isothermal titration calorimetry | – | full-length protein | – | –TΔS | -3.5 kcal/mol |
| O=C(O)[C@H]1O[C@@H](O[C@H]2[C@H](O)[C@H](O)[C@H](O[C@H]3[C@H](O)[C@H](O)[C@H](O)O[C@@H]3C(=O)O)O[C@H]2C(=O)O)[C@@H](O)[C@@H](O)[C@@H]1O[C@@H]1O[C@@H](C(=O)O)[C@@H](O)[C@H](O)[C@@H]1O | Beta-lactoglobulin (LGB, Bos taurus, UniProt P02754, A134V/G80D) | isothermal titration calorimetry | – | concentration not given, pH 2.65, 37 °C, 50 mM KH2PO4 | ligand per protein | binding stoichiometry | 5 |
| CCC1(CC)C[C@@H](NC(=O)Nc2cccc3c(C)nccc23)c2cc(F)ccc2O1 | Transient receptor potential cation channel subfamily V member 1 (Trpv1, Rattus norvegicus, UniProt O35433) | proton-induced calcium influx, potentiator | CHO, transfected | pH 5.0 | – | lowest potentiating concentration | < 1 nM |
| COc1ccc(/C=C/C(=O)NC[C@H]2O[C@H](OC)[C@@H](O)[C@@H](O)[C@@H]2O)cc1OC | Fucose-binding lectin PA-IIL (lecB, Pseudomonas aeruginosa, UniProt Q9HYN5) | ITC | – | concentration not given, 25 °C | – | binding stoichiometry | 1 and 1.03 |
| CCCC(CC)Sc1nc2c([nH]1)c(=S)n(C)c(=O)n2C (stereo not shown) | Androgen receptor (AR, Homo sapiens, UniProt P10275) | reporter gene, antagonist, PSA-luciferase | HeLa-A6 | 10 µM, 24 h, with: 5 nM dihydrotestosterone | relative to: maximal activity | remaining activity | 78% |
| C=C1C(=O)O[C@H]2[C@H]1CCC(COC(=O)CCCCCCCCCCCNC(=O)CCCC[C@@H]1SC[C@@H]3NC(=O)N[C@@H]31)=C1CC[C@@](C)(O)[C@@H]12 | Dihydrofolate reductase (DHFR, Homo sapiens, UniProt P00374) | competitive pull-down LC-MS/MS | M9-ENL1 cell lysate | with: probe 10 µM | relative to: MCL-treated control | enrichment ratio | 3 fold |
| Cc1ccc2ccc3ccc(C)nc3c2n1.Cc1ccc2ccc3ccc(C)nc3c2n1.O.[Cl-].[Cl-].[Cl-].[Yb+3] | Albumin (ALB, Bos taurus, UniProt P02769) | fluorescence quenching titration | – | concentration not given, 298 K | – | number of binding sites | 1.12 |
| NCCO[C@H]1[C@H](O)[C@@H](O)[C@@H]2O[C@@H]2[C@@H]1C(=O)O | Heparanase (HPSE, Homo sapiens, UniProt Q9Y251) | inhibitor, competitive ABPP | human platelet lysate | – | – | maximum non-inhibiting concentration | > 100 µM |
| CC[C@H](C)[C@H](NC(=O)[C@@H](NC(=O)[C@H](Cc1ccc(O)cc1)NC(=O)[C@H](C)NC(=O)[C@H](CC(N)=O)NC(=O)[C@H](CCC(=O)O)NC(=O)[C@H](Cc1ccccc1)NC(=O)[C@@H](NC(=O)[C@H](CO)NC(=O)[C@H](CCC(=O)O)NC(=O)[C@H](CCCCN)NC(=O)[C@H](Cc1ccccc1)NC(=O)[C@@H](N)CCCCN)C(C)C)C(C)C)C(=O)N[C@@H](Cc1ccc(O)cc1)C(=O)N[C@@H](CO)C(=O)N[C@@H](CO)C(=O)N[C@@H](CCSC)C(=O)N[C@@H](CC(C)C)C(=O)N[C@@H](Cc1ccc(O)cc1)C(=O)N[C@@H](CCCNC(=N)N)C(N)=O | Fibroblast growth factor 14 (Homo sapiens, UniProt Q92915) | – | – | – | – | kon | 23200 ± 1600 M⁻¹ s⁻¹ |
| COc1ccc(-c2cc(C(F)(F)F)nc(NCc3ccccc3)n2)cc1OC | GLP1R | cAMP accumulation, positive allosteric modulator | HEK-293T overexpressing GLP1R | with: EC20 GLP-1 | – | Emax | 52 ± 2.7% |
| CCc1nc2cc3ccccc3cc2cc1C(=O)N[C@@H](CCCCN)C(=O)N[C@@H](C/C=C\C[C@H](NC(=O)[C@H](CCCCN)NC(=O)c1cc2cc3ccccc3cc2nc1CC)C(=O)N1CCC[C@H]1C(=O)NCCCN)C(=O)N1CCC[C@H]1C(=O)NCCCN | (CUG)10 RNA | SPR | – | – | – | residence time | 230 s |
| CC(=O)N1C[C@H](O)C[C@H]1C(=O)NCc1ccccc1 | von Hippel-Lindau disease tumor suppressor, with Elongin B/C (VHL, Homo sapiens, UniProt P40337) | differential scanning fluorimetry | – | 1 mM, with: VCB complex 5 µM | – | ΔTm | 0.2 °C |
| CC(C)C[C@H](NC(=O)[C@H](Cc1ccc(O)cc1)NC(=O)[C@@H](CCCNC(=N)N)NC(=O)[C@@H](CO)NC(=O)[C@H](Cc1ccccc1)NC(=O)[C@H](CC1CCCCC1)NC(=O)[C@H](CC(=O)O)NC(=O)CN1CCCN2CCN(CCCN(CC(=O)O)CC2)CC1)C(=O)N[C@@H](Cc1c[nH]c2ccccc12)C(=O)N[C@@H](CO)C(=O)O (single isomer, unassigned) | Urokinase plasminogen activator surface receptor (Homo sapiens, UniProt Q03405) | binding, SPR | – | – | – | kon | 600000 M⁻¹ s⁻¹ |
| CC(=O)OC1OC(OC(C)=O)C2CC(O)(C3(C)CCCC(C)(C)C3)CCC12 (stereo not shown) | Peptidyl-prolyl cis-trans isomerase A (PPIA, Homo sapiens, UniProt P62937) | surface plasmon resonance | – | concentration not given | – | binding | inactive |
| CCCC[C@H](NC(=O)[C@]1(C)CCCC=CCCC[C@](C)(NC(=O)[C@H](C)NC(=O)[C@H](CC(C)C)NC(=O)[C@H](Cc2c[nH]cn2)NC(=O)[C@H](CCCNC(=N)N)NC(=O)[C@H](C)NC(=O)[C@@H](NC(=O)[C@H](CC(N)=O)NC(=O)[C@H](CCCNC(=N)N)NC(=O)[C@@H](NC(=O)[C@@H](NC(=O)[C@H](CC(=O)O)NC(=O)[C@H](CCC(=O)O)NC(C)=O)[C@@H](C)CC)[C@@H](C)CC)[C@@H](C)CC)C(=O)N[C@@H](C(C)C)C(=O)NCC(=O)N[C@@H](CC(=O)O)C(=O)N1)C(=O)N[C@@H](CC(=O)O)C(=O)N[C@@H](CCCNC(=N)N)C(=O)N[C@@H](CO)C(=O)N[C@H](C(N)=O)[C@@H](C)CC | Bcl-2 homologous antagonist/killer, part: residues 15–186 (BAK1, Homo sapiens, UniProt Q16611) | analytical ultracentrifugation | – | concentration not given | relative to: unstapled peptide | binding enhancement | ~10 fold |
| Cc1cc(C)c2sc(NC(=O)C3CCN(S(=O)(=O)c4ccc(F)cc4)CC3)nc2c1 | N-acyl-phosphatidylethanolamine-hydrolyzing phospholipase D (Napepld, Mus musculus, UniProt Q8BH82) | activator | RAW264.7 | concentration not given, with: PED-A1 | – | enzyme activity | increased |

A few entries again:
| SMILES | target | assay | system | conditions | scale | endpoint | value |
| --- | --- | --- | --- | --- | --- | --- | --- |
| C=C1C(=O)O[C@H]2[C@H]1CCC(COC(=O)CCCCCCCCCCCNC(=O)CCCC[C@@H]1SC[C@@H]3NC(=O)N[C@@H]31)=C1CC[C@@](C)(O)[C@@H]12 | Dihydrofolate reductase (DHFR, Homo sapiens, UniProt P00374) | competitive pull-down LC-MS/MS | M9-ENL1 cell lysate | with: probe 10 µM | relative to: MCL-treated control | enrichment ratio | 3 fold |
| O=C(O)[C@H]1O[C@@H](O[C@H]2[C@H](O)[C@H](O)[C@H](O[C@H]3[C@H](O)[C@H](O)[C@H](O)O[C@@H]3C(=O)O)O[C@H]2C(=O)O)[C@@H](O)[C@@H](O)[C@@H]1O[C@@H]1O[C@@H](C(=O)O)[C@@H](O)[C@H](O)[C@@H]1O | Beta-lactoglobulin (LGB, Bos taurus, UniProt P02754, A134V/G80D) | isothermal titration calorimetry | – | concentration not given, pH 2.65, 37 °C, 50 mM KH2PO4 | ligand per protein | binding stoichiometry | 5 |
